Published values from different studies.
A part holds a random share of what one study measured. Positions count from the first letter of the parent shown.
UniProt Q9Y5S2, sequence (whole entry, looked up): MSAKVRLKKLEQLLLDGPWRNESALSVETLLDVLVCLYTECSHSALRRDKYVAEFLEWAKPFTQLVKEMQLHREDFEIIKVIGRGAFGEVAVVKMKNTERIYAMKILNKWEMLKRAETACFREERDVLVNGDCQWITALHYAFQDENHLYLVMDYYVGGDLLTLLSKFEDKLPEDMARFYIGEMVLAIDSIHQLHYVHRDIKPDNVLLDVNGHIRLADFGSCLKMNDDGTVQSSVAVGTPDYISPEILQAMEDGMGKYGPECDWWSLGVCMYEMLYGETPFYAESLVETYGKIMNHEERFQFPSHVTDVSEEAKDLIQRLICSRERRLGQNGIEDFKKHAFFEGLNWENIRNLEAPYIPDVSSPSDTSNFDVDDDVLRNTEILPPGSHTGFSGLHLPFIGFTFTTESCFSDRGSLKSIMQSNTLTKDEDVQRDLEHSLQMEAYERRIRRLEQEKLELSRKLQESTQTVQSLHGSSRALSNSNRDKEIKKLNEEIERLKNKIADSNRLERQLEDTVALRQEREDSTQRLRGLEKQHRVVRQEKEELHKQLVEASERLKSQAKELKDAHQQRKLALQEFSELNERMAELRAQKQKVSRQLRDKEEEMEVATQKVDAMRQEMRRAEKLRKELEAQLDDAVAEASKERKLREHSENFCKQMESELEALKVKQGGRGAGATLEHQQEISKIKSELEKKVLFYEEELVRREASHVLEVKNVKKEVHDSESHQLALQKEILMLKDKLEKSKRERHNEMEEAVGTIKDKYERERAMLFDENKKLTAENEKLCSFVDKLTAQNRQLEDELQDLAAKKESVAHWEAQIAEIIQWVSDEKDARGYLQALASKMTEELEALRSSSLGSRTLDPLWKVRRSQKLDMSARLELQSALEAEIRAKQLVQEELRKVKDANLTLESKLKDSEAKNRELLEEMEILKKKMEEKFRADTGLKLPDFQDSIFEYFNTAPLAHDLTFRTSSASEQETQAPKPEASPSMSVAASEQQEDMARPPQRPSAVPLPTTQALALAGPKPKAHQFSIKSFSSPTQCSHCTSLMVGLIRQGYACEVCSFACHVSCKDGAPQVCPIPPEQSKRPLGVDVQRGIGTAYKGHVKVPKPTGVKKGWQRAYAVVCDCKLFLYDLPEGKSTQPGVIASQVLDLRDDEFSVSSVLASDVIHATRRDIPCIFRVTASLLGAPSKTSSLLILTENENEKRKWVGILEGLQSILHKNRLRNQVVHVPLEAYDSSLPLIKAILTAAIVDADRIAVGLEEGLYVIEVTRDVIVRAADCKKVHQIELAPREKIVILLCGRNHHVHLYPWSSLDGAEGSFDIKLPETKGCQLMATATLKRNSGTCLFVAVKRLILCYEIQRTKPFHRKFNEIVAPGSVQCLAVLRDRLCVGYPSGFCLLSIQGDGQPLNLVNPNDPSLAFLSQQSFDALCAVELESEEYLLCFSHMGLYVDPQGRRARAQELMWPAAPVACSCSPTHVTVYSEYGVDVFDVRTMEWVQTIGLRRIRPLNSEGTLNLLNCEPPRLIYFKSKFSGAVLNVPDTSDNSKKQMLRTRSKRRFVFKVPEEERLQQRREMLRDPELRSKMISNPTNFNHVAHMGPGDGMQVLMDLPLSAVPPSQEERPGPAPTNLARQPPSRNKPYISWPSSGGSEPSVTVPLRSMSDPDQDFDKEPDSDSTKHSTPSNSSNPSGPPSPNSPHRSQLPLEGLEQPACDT
UniProt P50750, sequence (whole entry, looked up): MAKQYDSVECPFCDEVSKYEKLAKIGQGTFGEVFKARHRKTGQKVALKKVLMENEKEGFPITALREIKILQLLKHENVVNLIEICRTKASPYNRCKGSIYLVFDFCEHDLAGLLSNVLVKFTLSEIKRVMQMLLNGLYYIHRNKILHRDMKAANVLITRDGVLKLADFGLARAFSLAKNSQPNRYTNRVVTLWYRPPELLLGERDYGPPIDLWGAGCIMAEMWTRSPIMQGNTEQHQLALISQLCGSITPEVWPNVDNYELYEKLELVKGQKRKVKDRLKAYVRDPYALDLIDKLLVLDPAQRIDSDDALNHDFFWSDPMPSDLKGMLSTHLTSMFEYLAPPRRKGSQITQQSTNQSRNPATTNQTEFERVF
UniProt Q8N568, sequence (whole entry, looked up): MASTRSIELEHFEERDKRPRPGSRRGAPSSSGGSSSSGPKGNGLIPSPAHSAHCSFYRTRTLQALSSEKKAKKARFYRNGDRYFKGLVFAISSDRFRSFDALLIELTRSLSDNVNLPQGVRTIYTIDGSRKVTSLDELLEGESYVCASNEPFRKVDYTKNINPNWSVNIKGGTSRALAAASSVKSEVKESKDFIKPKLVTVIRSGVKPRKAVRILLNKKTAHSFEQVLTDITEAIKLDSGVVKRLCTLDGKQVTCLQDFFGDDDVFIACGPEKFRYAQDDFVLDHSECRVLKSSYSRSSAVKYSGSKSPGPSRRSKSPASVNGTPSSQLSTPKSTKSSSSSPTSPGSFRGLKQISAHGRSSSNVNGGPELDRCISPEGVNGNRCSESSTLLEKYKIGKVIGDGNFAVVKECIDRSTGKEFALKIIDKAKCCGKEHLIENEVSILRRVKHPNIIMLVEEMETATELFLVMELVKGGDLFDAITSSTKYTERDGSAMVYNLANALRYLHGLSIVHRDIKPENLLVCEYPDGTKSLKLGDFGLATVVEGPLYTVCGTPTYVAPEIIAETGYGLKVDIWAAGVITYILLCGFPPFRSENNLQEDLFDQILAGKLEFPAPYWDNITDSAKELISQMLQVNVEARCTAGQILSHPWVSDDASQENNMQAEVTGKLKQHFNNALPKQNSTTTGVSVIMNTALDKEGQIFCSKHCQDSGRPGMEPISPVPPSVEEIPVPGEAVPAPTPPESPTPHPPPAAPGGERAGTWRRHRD
UniProt P32298, sequence (whole entry, looked up): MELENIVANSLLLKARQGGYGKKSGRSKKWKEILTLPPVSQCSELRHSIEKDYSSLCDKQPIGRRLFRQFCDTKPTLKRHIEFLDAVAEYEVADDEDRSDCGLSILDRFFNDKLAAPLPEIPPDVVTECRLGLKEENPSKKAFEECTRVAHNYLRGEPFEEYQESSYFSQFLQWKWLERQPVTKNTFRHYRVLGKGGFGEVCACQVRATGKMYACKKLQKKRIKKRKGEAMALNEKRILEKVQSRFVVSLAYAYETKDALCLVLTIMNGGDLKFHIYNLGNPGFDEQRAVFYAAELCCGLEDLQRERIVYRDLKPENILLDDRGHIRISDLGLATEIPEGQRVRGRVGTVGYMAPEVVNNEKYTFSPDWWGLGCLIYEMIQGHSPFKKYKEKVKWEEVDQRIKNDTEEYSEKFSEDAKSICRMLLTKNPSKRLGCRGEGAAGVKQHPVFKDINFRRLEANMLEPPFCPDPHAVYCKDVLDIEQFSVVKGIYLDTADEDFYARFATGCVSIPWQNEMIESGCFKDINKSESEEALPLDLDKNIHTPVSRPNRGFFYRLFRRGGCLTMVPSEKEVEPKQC
UniProt Q9H4B4, sequence (whole entry, looked up): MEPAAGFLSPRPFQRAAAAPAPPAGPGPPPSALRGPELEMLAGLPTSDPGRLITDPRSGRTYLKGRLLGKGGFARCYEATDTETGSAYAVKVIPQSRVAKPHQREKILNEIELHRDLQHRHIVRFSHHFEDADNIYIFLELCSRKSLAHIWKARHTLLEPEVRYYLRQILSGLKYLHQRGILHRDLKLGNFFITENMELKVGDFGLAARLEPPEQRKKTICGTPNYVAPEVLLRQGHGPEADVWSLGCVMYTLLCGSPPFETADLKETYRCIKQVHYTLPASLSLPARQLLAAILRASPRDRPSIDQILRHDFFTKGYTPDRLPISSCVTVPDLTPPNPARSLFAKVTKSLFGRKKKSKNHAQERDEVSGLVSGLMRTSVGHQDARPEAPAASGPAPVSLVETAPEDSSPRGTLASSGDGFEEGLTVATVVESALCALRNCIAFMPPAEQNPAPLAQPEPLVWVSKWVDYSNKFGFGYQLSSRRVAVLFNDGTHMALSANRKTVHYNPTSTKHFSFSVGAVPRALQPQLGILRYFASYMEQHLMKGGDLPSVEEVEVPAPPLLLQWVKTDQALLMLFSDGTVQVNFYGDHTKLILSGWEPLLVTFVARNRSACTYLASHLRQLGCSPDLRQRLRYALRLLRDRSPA
UniProt Q6P2M8, sequence (whole entry, looked up): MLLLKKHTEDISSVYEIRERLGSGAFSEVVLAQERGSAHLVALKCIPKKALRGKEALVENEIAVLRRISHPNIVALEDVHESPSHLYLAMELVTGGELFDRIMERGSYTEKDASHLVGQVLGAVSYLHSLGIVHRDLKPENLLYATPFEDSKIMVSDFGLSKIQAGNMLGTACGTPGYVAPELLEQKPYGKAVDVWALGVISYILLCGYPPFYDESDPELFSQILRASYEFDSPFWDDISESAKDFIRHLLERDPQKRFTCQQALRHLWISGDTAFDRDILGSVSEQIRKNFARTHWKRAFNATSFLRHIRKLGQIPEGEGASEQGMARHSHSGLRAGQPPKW

Set 1
Target: PABPC1L2, full length, GST fusion (mouse, UniProt A0ABA7IW68)
Method: RNAcompete
Molecule type: RNA
Sample: in vitro
Tested at: 20 nM
Notes: 7-mer, probes averaged, single round
Reference: mean of 7-mers
Direction: higher = stronger binding
Residues (chain): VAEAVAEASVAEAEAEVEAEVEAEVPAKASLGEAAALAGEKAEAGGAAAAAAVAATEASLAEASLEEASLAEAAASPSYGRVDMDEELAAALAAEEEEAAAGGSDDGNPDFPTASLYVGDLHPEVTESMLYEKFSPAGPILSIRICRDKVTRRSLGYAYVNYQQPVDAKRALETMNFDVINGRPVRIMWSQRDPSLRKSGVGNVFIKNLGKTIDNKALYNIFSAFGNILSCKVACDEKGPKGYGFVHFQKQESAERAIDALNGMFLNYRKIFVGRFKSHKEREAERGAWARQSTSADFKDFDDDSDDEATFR
For `AAGUGGC`, the 7-mer Z-score was 0.608.
`GACAAAA` has a 7-mer Z-score of 6.38.
`GCAAAUG` gave a 7-mer Z-score of 0.000733.
For `CUACGAC`, the 7-mer Z-score was -0.237.
For `GUGUACG`, the 7-mer Z-score was -0.235.
For `UACGGGC`, the 7-mer Z-score was 0.347.
With `UCAUAUU` the 7-mer Z-score was -0.197.
The 7-mer Z-score of `UCUUGGU` is reported as -0.387.

Set 2
SMILES: NC(=O)c1ccc(-c2nc(-c3ccc4c(c3)OCCO4)c(-c3ccccn3)[nH]2)cc1
Effect on: enzyme activity
Action: inhibitor
Tested at: 0.5 µM
Reference: control
Cyclin-dependent kinase 9, with cyclin K (CDK9, Homo sapiens, UniProt P50750) — remaining activity: 97.1%.
For CDC42BPB (Homo sapiens, UniProt Q9Y5S2): remaining activity read 102%.
MET (Homo sapiens, UniProt P08581) — remaining activity: 88.3%.
MARK2 (Homo sapiens, UniProt Q7KZI7) — remaining activity: 97.1%.
The remaining activity was 95.5% (DCLK2 (Homo sapiens, UniProt Q8N568)).
It gave 96% for remaining activity (KDR (Homo sapiens, UniProt P35968)).
The remaining activity was 95.3% (MAP2K1 (Homo sapiens, UniProt Q02750)).
The remaining activity was 105% (GRK4 (Homo sapiens, UniProt P32298)).
PLK3 (Homo sapiens, UniProt Q9H4B4) — remaining activity: 95.9%.
It gave 104% for remaining activity (PNCK (Homo sapiens, UniProt Q6P2M8)).
For PRKG2 (Homo sapiens, UniProt Q13237): remaining activity read 81.1%.
MINK1 (Homo sapiens, UniProt Q8N4C8) — remaining activity: 97.1%.
NEK3 (Homo sapiens, UniProt P51956) — remaining activity: 95%.

Set 3
Target: D(4) dopamine receptor (DRD4, Homo sapiens, UniProt P21917)
UniProt P21917, sequence (whole entry, looked up): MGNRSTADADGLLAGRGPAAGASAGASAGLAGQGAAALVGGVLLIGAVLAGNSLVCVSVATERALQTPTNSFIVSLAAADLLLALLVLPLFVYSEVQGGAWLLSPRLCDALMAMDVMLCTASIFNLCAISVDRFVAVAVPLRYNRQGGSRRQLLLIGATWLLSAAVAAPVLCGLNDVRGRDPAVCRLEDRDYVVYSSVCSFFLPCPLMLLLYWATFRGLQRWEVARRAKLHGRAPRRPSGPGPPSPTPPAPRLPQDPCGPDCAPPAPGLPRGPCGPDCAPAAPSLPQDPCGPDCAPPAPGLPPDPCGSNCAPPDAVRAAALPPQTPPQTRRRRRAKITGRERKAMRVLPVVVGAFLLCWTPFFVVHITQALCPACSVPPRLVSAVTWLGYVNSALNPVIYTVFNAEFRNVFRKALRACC
Effect on: binding
Method: radioligand binding
Tested at: 10 µM
`O=C([C@H]1C[C@H](O)CN1c1ccc(Cl)cc1)N1CC2COCC(C1)N2Cc1ccc(Cl)cc1` gave an inhibition of 51.5%.
`Cc1c(N2CCCC2)nc2ccc(Br)cc2c1C(=O)NC[C@H](CCC(=O)O)c1ccccc1Cl` gave an inhibition of 1.48%.
The inhibition of `Cc1c[nH]c2nccc(Oc3c(F)cc(Nc4cc(Cl)nc(N)n4)cc3F)c12` is reported as 11.4%.
For `CCCOc1ccc([C@H]2[C@H](C(=O)O)[C@@H](c3ccc4c(c3)OCO4)CN2CC(=O)Nc2c(CC)cccc2CC)cc1`, the inhibition was -3.59%.
The inhibition of `Cc1cc(-n2nc(Cc3cc(F)cc(C(F)(F)F)c3)nc2C)ccc1C(N)=O` is reported as -2.09%.
With `O=C(Nc1cccnn1)N1CC(CC=Cc2cncc(Oc3ccc(C(F)(F)F)cn3)n2)C1` the inhibition was 12.3%.
With `O=C1c2ccc(Nc3ccc(F)cc3F)cc2CCc2ccc(OC[C@H](O)CO)cc21` the inhibition was 9.38%.
The inhibition of `COc1nc2ccc([C@@](O)(c3ccccc3)C3CCN(C(C)=O)CC3)cc2c(Cl)c1Cc1ccc(-n2cccn2)cc1` is reported as -5.45%.
`COCc1nc2cnc3cc(-c4c(C)noc4C)c(OC[C@H]4CCNC4)cc3c2n1[C@H](C)c1ccccc1` gave an inhibition of 79.5%.
With `COc1cc(-c2cn(C3CCc4ccccc4N(CC(F)(F)F)C3=O)nn2)ccc1-n1ccc(C)n1` (stereo not drawn) the inhibition was 52.4%.

Set 4
Target: CCND2, cyclin fold, Cln2 fusion (human)
Method: yeast growth competition, sequencing
Sample: yeast
Notes: weak parent motif
Reference: not given
Direction: higher = stronger binding
Starting sequence: CABLES2 docking peptide (human); ICAKRSLCAAFSV; partner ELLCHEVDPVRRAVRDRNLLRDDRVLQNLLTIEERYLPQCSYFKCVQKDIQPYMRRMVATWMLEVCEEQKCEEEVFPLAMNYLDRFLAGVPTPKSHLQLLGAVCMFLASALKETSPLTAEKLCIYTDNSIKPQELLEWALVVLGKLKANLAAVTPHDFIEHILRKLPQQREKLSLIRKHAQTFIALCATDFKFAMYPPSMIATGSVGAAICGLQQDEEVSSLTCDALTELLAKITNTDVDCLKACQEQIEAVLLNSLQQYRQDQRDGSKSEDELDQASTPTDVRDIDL
`ICAKRSLCAAFAV [S12A]`: “normalised enrichment score” -0.0898.
Under “normalised enrichment score”, `ICAKRSLAAAFSV [C8A]` is recorded as -0.27.
Under “normalised enrichment score”, `ACAKRSLCAAFSV [I1A]` is recorded as -0.575.
For `ICAKRSLCAAASV [F11A]`, “normalised enrichment score” read 0.209.
For `ICAARSLCAAFSV [K4A]`, “normalised enrichment score” read -0.351.

For quick reference, copied from above (set 2):
For PRKG2 (Homo sapiens, UniProt Q13237): remaining activity read 81.1%.
For CDC42BPB (Homo sapiens, UniProt Q9Y5S2): remaining activity read 102%.
